# Assay results collected from several papers.
# Numbered parts are unrelated; each lists some results of a single study.

# Set 1 — method: protein-binding microarray; molecule type: double-stranded DNA, one strand shown; matrix: in vitro; concentration: 250 nM; setting: 60-bp whole probe; with: salmon DNA 0.4 mg/ml; relative to: random background probes; reading: higher = stronger binding; shared flanks, not repeated: GCCTAGCAC … GTCTTGATTCGCTTGACGCTGCTG
# Target: Interferon regulatory factor 7, full length, phosphomimetic (IRF7, Homo sapiens, UniProt Q92985, residues 1-503, S101K/S471D/S472D/S475D/S476D/S477D/S483D/S484D/S487D)
# Sequence of UniProt Q92985 (whole entry, unmodified, looked up): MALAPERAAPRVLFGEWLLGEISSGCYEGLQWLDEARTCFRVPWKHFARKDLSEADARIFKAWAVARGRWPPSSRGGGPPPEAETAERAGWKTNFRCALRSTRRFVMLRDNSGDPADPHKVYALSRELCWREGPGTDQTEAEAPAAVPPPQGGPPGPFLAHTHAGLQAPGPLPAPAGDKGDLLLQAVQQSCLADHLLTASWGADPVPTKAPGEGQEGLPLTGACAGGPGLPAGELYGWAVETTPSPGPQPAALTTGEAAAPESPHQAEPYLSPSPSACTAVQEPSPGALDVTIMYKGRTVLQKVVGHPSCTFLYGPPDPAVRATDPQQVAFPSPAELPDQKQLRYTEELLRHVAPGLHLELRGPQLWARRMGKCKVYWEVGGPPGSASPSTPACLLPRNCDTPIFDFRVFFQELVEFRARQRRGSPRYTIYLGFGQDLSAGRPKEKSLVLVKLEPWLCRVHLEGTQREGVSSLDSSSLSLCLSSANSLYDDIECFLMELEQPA
Strand,log fluorescence [z-score]
TCCTAATTCTCTTTTCACTTGTGCTAG,1.61
GACGAAGTGAGTATCGAGACGTGCTAG,-0.198
GACGGAATGGACACTGGGGACGTGCTA,-0.606
TTAGGTTTCGGCATCGGTTAGTGCTAG,3.62
TTAGGTCTCGGCTTCGGTTAGTGCTAG,1.23
TTAGGTATCGTTCTCGGTTAGTGCTAG,2.29
GACGGTTTCTTTATCCTGACGTGCTAG,3.01
TCCTCTCTGCCACTCAGGTAGTGCTAG,0.186

# Set 2 — method: RNA Bind-n-Seq; molecule type: RNA; matrix: in vitro; concentration: 1 µM; setting: whole 134-nt RNA, ends assumed; with: 150 mM KCl; relative to: input library; reading: higher = stronger binding
# Target: Ras GTPase-activating protein-binding protein 1, C-terminal RGG region (G3BP1, Homo sapiens, UniProt Q13283)
# Sequence of UniProt Q13283 (whole entry, looked up): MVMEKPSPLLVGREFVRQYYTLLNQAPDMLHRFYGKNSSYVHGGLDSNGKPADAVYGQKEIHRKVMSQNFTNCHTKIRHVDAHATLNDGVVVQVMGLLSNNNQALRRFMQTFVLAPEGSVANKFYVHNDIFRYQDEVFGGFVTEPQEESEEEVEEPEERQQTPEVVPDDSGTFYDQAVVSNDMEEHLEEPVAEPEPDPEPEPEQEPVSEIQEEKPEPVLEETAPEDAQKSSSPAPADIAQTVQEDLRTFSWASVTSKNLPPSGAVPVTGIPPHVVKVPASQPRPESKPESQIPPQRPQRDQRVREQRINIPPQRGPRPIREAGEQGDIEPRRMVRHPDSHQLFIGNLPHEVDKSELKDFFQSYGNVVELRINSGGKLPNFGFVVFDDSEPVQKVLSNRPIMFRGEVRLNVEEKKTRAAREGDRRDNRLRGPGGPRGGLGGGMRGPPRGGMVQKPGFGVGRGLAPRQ
# Shared flanks, not repeated: GGGAGUUCUACAGUCCGACGAUC … UGGAAUUCUCGGGUGUCAAGG
Strand,log2 enrichment
CCUCUGGACGAGACCAGCCAGAUGAGCGACCUCCCGGUGAAGGUGAUCCACGUGGAGAGUGGGAAGAUCCUCACAGGCACAGAUGCCCCC,-0.863
UCCUGUGCUACACAUCGUAUGUACCGAAUCGGGAAAAAAAGGAAAAAAAGGAAAAAAAGGAAAGUAUUAUGUUACGCCGUUCGGAUCUGC,-1.05
UGGCCCUGGUGGCAUGCGGGGAGGAAGAGGUGGCCUCAUGGAUCUUGGUGGUCCCGGUGGAAUGUUCAGAGGUGGCCGUGGUGGAGACAG,2.74
ACCAUGCAGGUGGGCAUCUUUGGGAAGUGGGGCAAGGGGGGGAUAGGGAGGGGGGUAAAAAUUUGGGAACAGGUGGUCCCAGGUCGUUUC,-1.9
GUCCUGUGCUACACAUCGUAUGUACCGAAUCGGUUUUUGGGGUUUUUGGGUUUUUGGGAAAGUAUUAUGUUACGCCGUUCGGAUCUGCAC,-0.629
UCAAGUCCUGUGCUACACAUCGUAUGUACCGAAUCGGAGGUUUUUUUGGAAAGGAAAGUAUUAUGUUACGCCGUUCGGAUCUGCACUUCC,-1.41
UCAUUUUUUUCCCUGCCGGAAUUUUAGCAUUGAUAUGAACCAUGGACAAGUAUAUUCUGCUGCCACAAAGACUGUAAAGUGCUUCAUUUC,-0.534
UCCUGCCAACCUCUCUUAAUGCUCUGAGAGCCUCUGGUGUUGACAUAGAAGAGGAAACGGAGAAGAACCUGGAAAAGGUACAGACUAUCA,-2.28

# Set 3 — method: RNAcompete; molecule type: RNA; matrix: in vitro; concentration: 20 nM; setting: 7-mer, probes averaged, single round; relative to: mean of 7-mers; reading: higher = stronger binding
# Target: PABPC1L2, full length, GST fusion (mouse, UniProt A0ABA7IW68)
# Residues (chain): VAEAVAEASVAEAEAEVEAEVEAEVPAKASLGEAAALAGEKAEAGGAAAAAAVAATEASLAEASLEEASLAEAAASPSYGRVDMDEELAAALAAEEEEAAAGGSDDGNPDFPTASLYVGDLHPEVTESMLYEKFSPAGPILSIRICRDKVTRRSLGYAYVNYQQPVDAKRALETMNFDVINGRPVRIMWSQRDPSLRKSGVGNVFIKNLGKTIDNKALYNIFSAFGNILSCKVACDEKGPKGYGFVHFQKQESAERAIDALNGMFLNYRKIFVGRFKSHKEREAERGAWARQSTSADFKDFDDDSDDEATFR
Strand,7-mer Z-score
CCGAUCA,-0.166
UUCUGCA,-0.278
GCAUGGA,0.206
GUUAAAC,0.0642
UUUAGCG,0.142
UCCUAAA,0.579
GCCACCG,-0.226
CUACAUA,-0.13

# Single results of other studies
Sequence,target,test,test system,scale,measurement,result
ALGGSCHTT,"HLA class I histocompatibility antigen, A alpha chain, allele A*80:01 (Homo sapiens, UniProt P04439)",peptide-MHC binding,peptide,direction not given,z-score of log IC50,0.38

# Excerpt of the above (single results of other studies):
Sequence,target,test,test system,scale,measurement,result
ALGGSCHTT,"HLA class I histocompatibility antigen, A alpha chain, allele A*80:01 (Homo sapiens, UniProt P04439)",peptide-MHC binding,peptide,direction not given,z-score of log IC50,0.38
